Experimental data collected from several papers.
Every numbered part comes from another study and shows a few of its results, in no order.
UniProt Q9HBH9, sequence (whole entry, looked up): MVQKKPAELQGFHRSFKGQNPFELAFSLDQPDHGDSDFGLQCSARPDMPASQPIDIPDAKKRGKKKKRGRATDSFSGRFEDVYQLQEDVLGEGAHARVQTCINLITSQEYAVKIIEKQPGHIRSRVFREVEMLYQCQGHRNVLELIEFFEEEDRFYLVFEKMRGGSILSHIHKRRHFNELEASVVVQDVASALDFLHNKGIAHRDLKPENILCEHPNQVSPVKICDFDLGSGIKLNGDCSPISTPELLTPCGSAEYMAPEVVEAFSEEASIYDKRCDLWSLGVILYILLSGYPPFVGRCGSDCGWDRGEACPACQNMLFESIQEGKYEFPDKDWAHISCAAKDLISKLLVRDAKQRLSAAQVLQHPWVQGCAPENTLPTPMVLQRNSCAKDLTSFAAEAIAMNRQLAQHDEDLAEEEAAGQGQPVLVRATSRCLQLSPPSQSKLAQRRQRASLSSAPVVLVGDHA
UniProt Q15831, sequence (whole entry, looked up): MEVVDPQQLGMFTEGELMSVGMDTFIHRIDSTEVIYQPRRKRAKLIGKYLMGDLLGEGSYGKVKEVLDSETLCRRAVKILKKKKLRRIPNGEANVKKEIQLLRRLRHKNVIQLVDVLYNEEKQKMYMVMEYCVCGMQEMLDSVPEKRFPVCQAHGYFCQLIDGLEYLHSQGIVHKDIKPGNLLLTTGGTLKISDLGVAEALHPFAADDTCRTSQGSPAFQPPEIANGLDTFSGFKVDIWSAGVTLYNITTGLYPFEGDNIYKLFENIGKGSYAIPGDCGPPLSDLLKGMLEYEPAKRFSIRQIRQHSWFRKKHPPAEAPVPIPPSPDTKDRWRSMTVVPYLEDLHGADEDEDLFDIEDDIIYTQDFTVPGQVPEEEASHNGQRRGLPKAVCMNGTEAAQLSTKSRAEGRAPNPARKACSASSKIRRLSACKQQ
UniProt O75460, sequence (whole entry, looked up): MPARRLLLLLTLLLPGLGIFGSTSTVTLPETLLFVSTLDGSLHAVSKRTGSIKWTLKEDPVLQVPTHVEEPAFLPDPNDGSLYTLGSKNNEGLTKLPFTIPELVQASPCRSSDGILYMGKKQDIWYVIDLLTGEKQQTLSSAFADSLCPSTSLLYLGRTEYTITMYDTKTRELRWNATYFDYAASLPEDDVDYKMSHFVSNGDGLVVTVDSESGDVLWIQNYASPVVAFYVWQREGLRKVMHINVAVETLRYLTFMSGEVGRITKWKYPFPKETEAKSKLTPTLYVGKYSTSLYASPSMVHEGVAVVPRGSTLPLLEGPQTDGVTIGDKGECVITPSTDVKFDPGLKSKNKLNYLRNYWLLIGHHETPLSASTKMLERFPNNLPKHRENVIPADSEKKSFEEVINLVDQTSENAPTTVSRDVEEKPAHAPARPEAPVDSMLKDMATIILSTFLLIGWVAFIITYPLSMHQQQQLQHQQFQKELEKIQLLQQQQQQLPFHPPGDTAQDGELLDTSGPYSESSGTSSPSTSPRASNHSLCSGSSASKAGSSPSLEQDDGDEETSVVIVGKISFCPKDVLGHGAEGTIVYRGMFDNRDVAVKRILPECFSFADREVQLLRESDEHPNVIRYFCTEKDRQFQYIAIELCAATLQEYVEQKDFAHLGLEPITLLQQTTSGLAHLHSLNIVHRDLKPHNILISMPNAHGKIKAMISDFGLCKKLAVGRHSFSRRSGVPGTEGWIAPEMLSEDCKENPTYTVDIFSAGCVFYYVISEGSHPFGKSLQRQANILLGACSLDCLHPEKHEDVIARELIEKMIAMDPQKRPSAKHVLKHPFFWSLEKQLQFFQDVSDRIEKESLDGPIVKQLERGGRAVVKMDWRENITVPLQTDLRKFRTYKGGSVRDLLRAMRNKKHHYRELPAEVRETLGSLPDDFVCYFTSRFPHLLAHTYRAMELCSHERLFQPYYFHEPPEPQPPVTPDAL
UniProt O75716, sequence (whole entry, looked up): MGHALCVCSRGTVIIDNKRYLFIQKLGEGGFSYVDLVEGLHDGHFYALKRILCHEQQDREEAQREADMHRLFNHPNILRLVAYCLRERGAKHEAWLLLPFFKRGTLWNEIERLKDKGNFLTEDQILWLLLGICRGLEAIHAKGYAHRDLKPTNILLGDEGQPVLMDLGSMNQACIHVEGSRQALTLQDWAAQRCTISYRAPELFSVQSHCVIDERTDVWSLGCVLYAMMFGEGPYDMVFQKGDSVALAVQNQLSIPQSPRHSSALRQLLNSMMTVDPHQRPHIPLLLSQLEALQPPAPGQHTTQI
UniProt Q96SB4, sequence (whole entry, looked up): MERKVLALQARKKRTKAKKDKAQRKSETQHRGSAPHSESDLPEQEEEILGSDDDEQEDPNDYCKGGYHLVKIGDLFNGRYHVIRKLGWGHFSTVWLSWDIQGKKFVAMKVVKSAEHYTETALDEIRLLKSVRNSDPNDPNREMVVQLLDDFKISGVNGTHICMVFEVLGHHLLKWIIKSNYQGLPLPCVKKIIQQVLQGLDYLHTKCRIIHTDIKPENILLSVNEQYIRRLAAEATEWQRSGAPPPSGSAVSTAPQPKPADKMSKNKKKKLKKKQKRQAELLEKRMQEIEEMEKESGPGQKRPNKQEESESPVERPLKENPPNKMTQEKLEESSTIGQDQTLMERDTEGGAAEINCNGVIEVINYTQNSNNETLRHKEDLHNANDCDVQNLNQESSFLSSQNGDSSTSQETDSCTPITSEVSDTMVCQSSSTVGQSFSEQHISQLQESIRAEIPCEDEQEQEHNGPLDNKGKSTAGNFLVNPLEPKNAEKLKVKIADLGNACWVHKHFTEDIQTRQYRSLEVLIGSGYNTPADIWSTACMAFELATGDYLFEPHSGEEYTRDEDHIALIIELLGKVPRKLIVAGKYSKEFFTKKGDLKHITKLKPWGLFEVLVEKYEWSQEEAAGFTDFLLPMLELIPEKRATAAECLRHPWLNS
UniProt Q86YV6, sequence (whole entry, looked up): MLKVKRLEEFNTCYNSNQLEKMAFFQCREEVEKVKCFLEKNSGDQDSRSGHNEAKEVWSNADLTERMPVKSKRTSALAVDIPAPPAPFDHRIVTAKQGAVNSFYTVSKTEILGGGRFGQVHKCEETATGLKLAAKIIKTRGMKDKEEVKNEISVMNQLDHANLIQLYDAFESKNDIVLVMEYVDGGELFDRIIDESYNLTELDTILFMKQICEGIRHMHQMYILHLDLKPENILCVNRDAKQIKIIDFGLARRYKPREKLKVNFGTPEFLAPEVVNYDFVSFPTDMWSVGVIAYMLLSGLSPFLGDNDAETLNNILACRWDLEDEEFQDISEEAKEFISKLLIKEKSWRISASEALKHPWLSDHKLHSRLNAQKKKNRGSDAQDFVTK
UniProt Q15759, sequence (whole entry, looked up): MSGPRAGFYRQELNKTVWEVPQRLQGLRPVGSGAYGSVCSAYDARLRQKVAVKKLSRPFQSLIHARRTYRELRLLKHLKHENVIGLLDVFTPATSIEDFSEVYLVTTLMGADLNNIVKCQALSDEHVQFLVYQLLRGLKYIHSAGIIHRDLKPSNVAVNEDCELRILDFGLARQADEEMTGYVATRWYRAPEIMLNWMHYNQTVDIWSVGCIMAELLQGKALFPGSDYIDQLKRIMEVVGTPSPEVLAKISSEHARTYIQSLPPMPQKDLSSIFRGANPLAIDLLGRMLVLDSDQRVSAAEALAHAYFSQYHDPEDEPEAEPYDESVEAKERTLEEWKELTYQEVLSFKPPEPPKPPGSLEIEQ
UniProt Q99759, sequence (whole entry, looked up): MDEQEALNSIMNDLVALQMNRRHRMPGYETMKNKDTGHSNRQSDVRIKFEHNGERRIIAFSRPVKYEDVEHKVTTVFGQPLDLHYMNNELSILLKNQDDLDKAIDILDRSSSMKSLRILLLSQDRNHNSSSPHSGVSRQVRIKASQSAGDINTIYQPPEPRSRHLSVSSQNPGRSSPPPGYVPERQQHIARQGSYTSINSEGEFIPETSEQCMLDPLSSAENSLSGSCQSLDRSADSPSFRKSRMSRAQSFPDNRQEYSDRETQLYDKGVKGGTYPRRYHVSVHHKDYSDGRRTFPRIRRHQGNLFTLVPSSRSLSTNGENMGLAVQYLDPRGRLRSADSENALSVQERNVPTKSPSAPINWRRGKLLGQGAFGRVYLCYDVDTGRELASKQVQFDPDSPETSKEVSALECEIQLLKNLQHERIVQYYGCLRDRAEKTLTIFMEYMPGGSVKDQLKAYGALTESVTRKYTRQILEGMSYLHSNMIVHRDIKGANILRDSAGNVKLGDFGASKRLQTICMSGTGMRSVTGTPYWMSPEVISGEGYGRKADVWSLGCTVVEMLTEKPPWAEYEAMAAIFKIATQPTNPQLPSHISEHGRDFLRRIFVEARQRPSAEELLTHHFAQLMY

Block 1
SMILES: COc1cc(C(=O)N2CCC(N3CCN(C)CC3)CC2)ccc1Nc1ncc2c(n1)N(C)c1ccccc1C(=O)N2C
target	test	test system	conditions	inhibition [%]
MLKL (mouse)	probe labelling, KiNativ ADP probe	mouse brain lysate	1 µM, LYS1 labelled site	7.6
TRKB (mouse)	probe labelling, inhibitor, KiNativ ActivX ADP probe	mouse brain lysate	0.1 µM, Lys1 site peptide	-0.2
PFTAIRE1 human	KiNativ profiling	human PBMC lysate	concentration not given, ADP probe, Lys1 site	-7
MAP3K2 (mouse)	probe labelling, KiNativ ADP probe	mouse brain lysate	1 µM, LYS1 labelled site	-2.1

Block 2
Cell line: mouse MPNST tumor cells
Method: high-content nuclear imaging
Measured: cell number
Concentration: 10 µM
Time: 12 h
Setting: mean of 2 replicates
Reference: plate mean
Direction: higher = more cells
SMILES	nuclei count
N#Cc1ccc2[nH]cc(CCCCN3CCN(c4ccc5oc(C(N)=O)cc5c4)CC3)c2c1	-2.59 z-score
COc1nc(-c2ccc3c(c2)OCO3)n(-c2ccc(NC(=O)CSc3ccccc3)cc2)n1	1.17 z-score
COc1ccc2nccc(NC(=O)c3cc([N+](=O)[O-])ccc3Cl)c2c1	-5.3 z-score
CN[C@@H]1[C@H](O[C@H]2[C@H](O[C@H]3[C@H](O)[C@@H](O)[C@H](N=C(N)N)[C@@H](O)[C@@H]3N=C(N)N)O[C@@H](C)[C@]2(O)C=O)O[C@@H](CO)[C@H](O)[C@H]1O	0.996 z-score

Block 3
SMILES: Cc1nccc(COC(=O)N2C[C@@H]3[C@@H](CNC(=O)c4ccc5[nH]nnc5c4)[C@@H]3C2)n1
Concentration: 1 µM
target	test	remaining binding
EGFR (Homo sapiens, UniProt P00533, del746-750)	cell-free assay, competition with immobilised ligand	100%
ERN1 (Homo sapiens, UniProt O75460)	cell-free assay, competition with immobilised ligand	90%
FLT3 (Homo sapiens, UniProt P36888, D835V/ITD)	cell-free assay, competition with immobilised ligand	100%
MARK4 (Homo sapiens, UniProt Q96L34)	cell-free assay, competition with immobilised ligand	85%
EPHA7 (Homo sapiens, UniProt Q15375)	cell-free assay, competition with immobilised ligand	89%
EGFR (Homo sapiens, UniProt P00533, del747-750/T751S)	cell-free assay, competition with immobilised ligand	87%
MAP3K3 (Homo sapiens, UniProt Q99759)	cell-free assay, competition with immobilised ligand	91%
MAP3K4 (Homo sapiens, UniProt Q9Y6R4)	cell-free assay, competition with immobilised ligand	94%
DYRK1B (Homo sapiens, UniProt Q9Y463)	cell-free assay, competition with immobilised ligand	99%
MAP3K19 (Homo sapiens, UniProt Q56UN5)	cell-free assay, competition with immobilised ligand	90%
STK11 (Homo sapiens, UniProt Q15831)	cell-free assay, competition with immobilised ligand	100%
CDK13 (Homo sapiens, UniProt Q14004)	cell-free assay, competition with immobilised ligand	82%
MAP4K2 (Homo sapiens, UniProt Q12851)	cell-free assay, competition with immobilised ligand	84%
MYLK4 (Homo sapiens, UniProt Q86YV6)	cell-free assay, competition with immobilised ligand	89%
MKNK2 (Homo sapiens, UniProt Q9HBH9)	cell-free assay, competition with immobilised ligand	90%
FLT3 (Homo sapiens, UniProt P36888, D835H)	cell-free assay, competition with immobilised ligand	97%
EGFR (Homo sapiens, UniProt P00533, L858R)	cell-free assay, competition with immobilised ligand	78%
HCK (Homo sapiens, UniProt P08631)	cell-free assay, competition with immobilised ligand	99%
CDK19 (Homo sapiens, UniProt Q9BWU1)	competition binding	97%
SRPK1 (Homo sapiens, UniProt Q96SB4)	cell-free assay, competition with immobilised ligand	80%
MAP2K4 (Homo sapiens, UniProt P45985)	cell-free assay, competition with immobilised ligand	100%
Aurora kinase C (AURKC, Homo sapiens, UniProt Q9UQB9)	cell-free assay, competition with immobilised ligand	100%
STK16 (Homo sapiens, UniProt O75716)	cell-free assay, competition with immobilised ligand	80%
TXK (Homo sapiens, UniProt P42681)	binding, competition with immobilised ligand	94%
MAPK11 (Homo sapiens, UniProt Q15759)	cell-free assay, competition with immobilised ligand	94%

Block 4
Target: Calcium/calmodulin-dependent protein kinase type II subunit alpha (CAMK2A, Homo sapiens, UniProt Q9UQM7)
UniProt Q9UQM7, sequence (whole entry, looked up): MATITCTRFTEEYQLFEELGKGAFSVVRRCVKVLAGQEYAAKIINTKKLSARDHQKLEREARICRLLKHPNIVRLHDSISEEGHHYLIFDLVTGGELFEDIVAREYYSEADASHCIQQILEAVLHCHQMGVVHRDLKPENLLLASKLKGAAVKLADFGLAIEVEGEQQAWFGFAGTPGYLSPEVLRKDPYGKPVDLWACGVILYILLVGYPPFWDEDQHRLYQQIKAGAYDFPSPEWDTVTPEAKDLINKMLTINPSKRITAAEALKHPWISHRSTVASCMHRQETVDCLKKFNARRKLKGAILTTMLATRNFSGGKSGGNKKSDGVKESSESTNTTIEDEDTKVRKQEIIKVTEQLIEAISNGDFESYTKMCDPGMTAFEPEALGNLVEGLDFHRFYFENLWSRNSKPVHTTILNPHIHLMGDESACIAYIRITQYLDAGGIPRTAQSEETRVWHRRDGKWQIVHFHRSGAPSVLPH
Read-out: enzyme activity
Mode: inhibitor
Concentration: 10 µM
SMILES	inhibition [%]
C[C@H]1O[C@@H](n2cnc3c(N)ncnc32)[C@H](O)[C@@H]1O	-21
CC(C)=CCC[C@](C)(O[C@@H]1O[C@H](CO[C@@H]2O[C@@H](CO)[C@H](O)[C@H]2O)[C@@H](O)[C@H](O)[C@H]1O)[C@H]1CC[C@]2(C)[C@@H]1[C@H](O)C[C@@H]1[C@@]3(C)CC[C@H](O[C@@H]4O[C@H](CO)[C@@H](O)[C@H](O)[C@H]4O)C(C)(C)[C@@H]3CC[C@]12C	-6
O=C(O)Cc1c[nH]c2ccc(O)cc12	-63
CC(C)N(CCCCOCC(=O)NS(C)(=O)=O)c1cnc(-c2ccccc2)c(-c2ccccc2)n1	-13
CCCCCCc1cccs1	0
CC(=O)Cc1cc(=O)c2c(C)cc(O)c([C@@H]3O[C@H](CO)[C@@H](O)[C@H](O)[C@H]3O)c2o1	7
OCCCO	-3

Block 5
Species: human
Matrix: microsomes or S9
Concentration: 2 µM
Time: 0.5 h
Compound	remaining compound [%]
COc1cc(=O)[nH]cc1C(=O)N1CCOC(C)(c2ccccc2)C1 (stereo not shown)	96.5
CC(C)(C)NC(=O)CN1CCN(c2cc(C(=O)O)c3cc(NS(=O)(=O)c4ccc(F)cc4)ccc3n2)CC1	> 99
CCOc1cccc(CN(CCO)Cc2ccccc2C(=O)O)c1	96.3
c1ccc(C2CC(c3cccs3)Nc3ncnn32)cc1 (stereo not shown)	51.5
c1ccc(C(c2ccccc2)c2n[nH]c3c2CNCC3)cc1	99.8
CC(C)c1nn(C)c(Cl)c1CNCc1ccccc1CO	71.8
NC(N)=NC(=O)c1coc(-c2cc(F)cc(F)c2)c1	> 99.9

Block 6
Organism: Sarcocystis neurona
Read-out: parasite growth
Concentration: 10 µM
Time: 96 h
Setting: first screen
Reference: untreated
SMILES	log2 fold change
CCCN(CCC)S(=O)(=O)c1ccc(C(=O)O)cc1	0.33
CC[C@]1(O)C[C@@H]2CN(CCc3c([nH]c4ccccc34)[C@@](C(=O)OC)(c3cc4c(cc3OC)N(C)[C@H]3[C@@](O)(C(N)=O)[C@H](O)[C@]5(CC)C=CCN6CC[C@]43[C@@H]65)C2)C1	-0.36
CCOC(=O)OC(C)OC1=C(C(=O)Nc2ccccn2)N(C)S(=O)(=O)c2ccccc21 (stereo not shown)	0.2
NS(=O)(=O)c1cc2c(cc1C(F)(F)F)NCNS2(=O)=O	0.18
CN1[C@@H]2CC[C@H]1C[C@@H](OC(=O)c1c[nH]c3ccccc13)C2	-0.26

Some of these lines once more (block 3):
target	test	remaining binding
STK11 (Homo sapiens, UniProt Q15831)	cell-free assay, competition with immobilised ligand	100%
CDK13 (Homo sapiens, UniProt Q14004)	cell-free assay, competition with immobilised ligand	82%
MAP4K2 (Homo sapiens, UniProt Q12851)	cell-free assay, competition with immobilised ligand	84%
MYLK4 (Homo sapiens, UniProt Q86YV6)	cell-free assay, competition with immobilised ligand	89%
MKNK2 (Homo sapiens, UniProt Q9HBH9)	cell-free assay, competition with immobilised ligand	90%
